Measurements of several laboratories.
A part holds a random share of what one study measured. Positions count from the first letter of the parent shown.

Series 1 — target: CCNB3, cyclin fold, Cln2 fusion (human); method: yeast growth competition, sequencing; matrix: yeast; setting: weak parent motif; relative to: not given; reading: higher = stronger binding; quantity: normalised enrichment score
Starting sequence: PKN2 docking peptide (human); VSAVQKLDFSDTM
D11H: 0.302
S10E: 0.548
V4I: 0.323

Series 2 — method: protein-binding microarray; form: double-stranded DNA, one strand shown; matrix: in vitro; concentration: not given; reading: higher = stronger binding; quantity: E-score
Target: Hepatocyte nuclear factor 3-beta, forkhead domain (FOXA2, Homo sapiens, UniProt Q9Y261, residues 142-269)
Setting: k-mer, scored over probes, only values ≥0.25
Construct (chain): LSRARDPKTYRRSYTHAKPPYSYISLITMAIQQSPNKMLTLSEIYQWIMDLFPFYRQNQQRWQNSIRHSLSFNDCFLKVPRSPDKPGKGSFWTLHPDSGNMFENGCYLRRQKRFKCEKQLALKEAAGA
TATTACAA: 0.334
GTACAACA: 0.274
ACAGTATG: 0.264
CAATATAA: 0.274

Series 3 — method: RNA Bind-n-Seq; form: RNA; matrix: in vitro; concentration: 365 nM; relative to: no-protein control; reading: higher = stronger binding; quantity: RBNS enrichment (R)
Target: RNA binding protein fox-1 homolog 2, RRM domain, GST-SBP tag (RBFOX2, Homo sapiens, UniProt O43251-10, residues 100-194)
Setting: natural RNA segment, single round, ends assumed
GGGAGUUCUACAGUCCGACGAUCGAGCCAUUGAGUAGGGAAUUGUAUUGGAUGAUGGUUUUCAUUUUUGUUACUGAAAACAAAGUCUUGUCUAGCACCGUGAGAAUCAUUAAAAAUAAAAUGGCAAUUUUAGCUGGAAUUCUCGGGUGCCAA: 0.984
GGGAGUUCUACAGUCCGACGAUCGUGCGCUCUUUUGAUACAUACAUUUACCUGCUGUUUUUCUCAAAUAAAAGUUGCAAGCUACUGCUCACCACCGUCUGACUCCAGAGUUAUUAUGGUGGGCUAGGGAUGGGUGGAAUUCUCGGGUGCCAA: 0.415
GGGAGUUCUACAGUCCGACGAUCAGAAGUCAAGAACUGAGGUUUGGGAACCUCUGCCUAGAUUUCAGAGAAUGUAUGGAAAUGCAUGUAUGUCCAGGCAGAAGUUUGCUACAGGAGUGAGGCCCUCAUGGAGAUGGAAUUCUCGGGUGCCAA: 7.6
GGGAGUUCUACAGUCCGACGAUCCAGGCCUUAGAGCCGAGGGAGACUAUUAGGCAGCAGGCCAAACCACUCUGGCCCUGGAGCCGCCUUUGUUAACAGCAACAAGAAUGCUGCAGUGCUACAACGUGCUGGAAUGGAAUUCUCGGGUGCCAA: 0.423
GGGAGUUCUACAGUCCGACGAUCCUCACAGCAAGCACAAGUUGUCUGCACCACUUGGUUUCUGACUGAAGGGGAAGUACAGGACUACAUGGAAUCUGAUUUCUGGUGUUGCUUAUUACCAAAAAUGACAGAAUUGGAAUUCUCGGGUGCCAA: 0.767

Other studies, line by line
PhoQ, residues 284 288 289 292 302 303 TLASMF  fold induction (PhoP, residues 12 14 15 18 19 VQGLL (Escherichia coli, UniProt P23836); Sort-seq, item: YFP reporter; E. coli; PhoQ-PhoP variant library, with: 10 µM Mg2+; relative to: high Mg2+ state, higher = stronger signaling): 7.26

Some of these lines once more (series 2):
TATTACAA: 0.334
